Experimental data from different studies.
“And” joins repeats or separate records; there may be more than shown. Numbers after ± are the reported error.

Compound	test	test system	setting	Tmax
C#C[C@]1(COP(=O)(O)O)O[C@@H](n2cnc3c(N)nc(F)nc32)C[C@@H]1O	item: islatravir triphosphate	human, PBMC	oral, 5 mg single dose	6 h
CC(C)NC(=O)COc1cccc(-c2nc(Nc3ccc4[nH]ncc4c3)c3ccccc3n2)c1		human, male, fed, plasma	oral, 200 mg once daily, day 8, median, added: raltegravir	2 h
CN(C)C(=O)c1cc2cnc(Nc3ccc(N4CCNCC4)cn3)nc2n1C1CCCC1		human, normal renal function, plasma	oral, 400 mg, single dose, median	2 h
CC(C)n1nc(-c2ccc3oc(N)nc3c2)c2c(N)ncnc21		human patients, plasma	oral, 20 mg once weekly, cycle 1 day 1, dose escalation	0.47 h
CN1CC[C@@H](c2c(O)cc(O)c3c(=O)cc(-c4ccc(C(F)(F)F)cc4Cl)oc23)[C@@H]1CO		human, plasma	oral	~4 h
CN(CC#N)C(=O)C[C@H](Nc1nc2ccccc2[nH]1)c1cccc(C(F)(F)F)c1		human	intravenous infusion, 3 mg/kg, 1 mg/mL formulation	0.43 ± 0.09 h
O=C(O)c1cc(/N=N/c2ccc(S(=O)(=O)Nc3ccccn3)cc2)ccc1O	LC-MS	human, plasma	oral, 1000 mg, day 1	4 h
Cc1ncnc2c1ccn2[C@@H]1C[C@H](Oc2cc(C(F)F)c(F)c3c2CNCC3)[C@@H](O)[C@H]1O		human	oral, 0.5 mg twice daily	5.6 h
Cn1cc(-c2ccc(S(=O)(=O)[C@@H]3C[C@@H](C(=O)NC4(C#N)CC4)N(C(=O)C4(C(F)(F)F)CC4)C3)c(C(F)(F)F)c2)cn1	noncompartmental analysis	human, plasma	oral, 50 mg, day 1, with food, median	5 h
Cc1cc(Nc2cc3ncccc3c(N[C@@H]3C[C@H]4CC[C@@H](C3)N4CCC#N)n2)n[nH]1		human, plasma	10 mg single dose, median	0.51 h
C[C@@H]1CCO[C@H]2Cn3cc(C(=O)NCc4ccc(F)cc4F)c(=O)c(O)c3C(=O)N12		human, normal renal function, plasma	oral, steady state, fixed-dose combination	5.5 h
CCO	gas chromatography	human, plasma	0.5 g/kg, alone, median	0.5 h
C=CC(=O)NC1CCN(c2ncc3ncnc(Nc4ccc(Oc5ccc6c(c5)ncn6C)c(C)c4)c3n2)CC1		human, male, plasma	oral, 240 mg single dose, fed, median	4 h
CC(F)(F)c1cc(F)ccc1-c1sc2cc(O)ccc2c1Oc1ccc(/C=C/C(=O)O)cc1		human patients, serum	oral, 200 mg twice daily, cycle 1 day 28, without regard to food, median	2.5 h
C#C[C@]1(CO)O[C@@H](n2cnc3c(N)nc(F)nc32)C[C@@H]1O		human, plasma	oral, 200 mg, single dose, median	0.5 h
Cc1cc(-c2nccc3c2ccn3CC(=O)Nc2ccc(-c3cnccn3)cn2)ccn1		human, plasma	oral, 40 mg single dose, median	1 h
CNC(=O)c1ccc(-c2cnc3ncc(Cc4ccc5ncccc5c4)n3n2)cc1F		human severe hepatic impairment NCI	oral, 200 mg single dose, median	1.5 h
COc1cc([C@@H]2[C@H]3CO[C@@]4(O)C(=O)[C@@H]2C=C([C@H]2Oc5cc(O)cc(O)c5C(=O)[C@@H]2O)[C@@H]34)ccc1O		OATP1B1/1B3 humanized mice, plasma	oral gavage, 500 mg/kg silymarin, median	0.25 h
CC(C)n1c(Nc2cccnc2)nc2cnc(Nc3ccc(N4CCN(C)CC4)cc3)nc21		human, male, plasma	oral, 150 mg, day 15, median, added: rifampin 600 mg daily	1 h
Cc1nc(-c2ccc(OCC(C)C)c(C#N)c2)sc1C(=O)O		human, plasma	oral, 40 mg once daily, added: verinurad 10 mg	1.75 h
CCCCCCCCCCCCCCCC(=O)N[C@@H](CCC(=O)NCCCC[C@@H]1NC(=O)[C@H]([C@@H](C)CC)NC(=O)[C@@H](NC(=O)[C@@H]2CCCN2C(=O)[C@H](Cc2ccccc2)NC(=O)[C@H](Cc2c[nH]cn2)NC(=O)[C@@H](NC(=O)[C@H](CC(=O)O)NC(=O)CC(C)C)[C@@H](C)O)CSSC[C@@H](C(=O)N[C@@H](CCCCN)C(N)=O)NC(=O)CNC(=O)[C@H](CCCCN)NC(=O)[C@H](CO)NC(=O)[C@H](CCCNC(=N)N)NC(=O)[C@@H]2CCCN2C(=O)[C@H](CCC(=O)O)NC(=O)[C@H](Cc2ccccc2)NC1=O)C(=O)O		healthy human, plasma	subcutaneous, 20 mg, single dose, aqueous formulation, median	1 h
C#Cc1cccc(Nc2ncnc3cc(OCCOC)c(OCCOC)cc23)c1		human	oral, 100 mg daily	3 to 4 h
C[C@H](Oc1ccc(Br)cc1-c1ccon1)C(=O)O		healthy male humans, plasma	oral, 400 mg twice daily, day 10, median	8.01 h
Cc1cc(-c2nnc(N)nc2-c2ccc(F)cc2)cc(Cl)n1		human patients, plasma	oral, 200 mg capsule once daily, multiple doses, median	2 h
CO[C@@H]1[C@H](OC(=O)N2CC(CCN3CCOCC3)C2)CC[C@]2(CO2)[C@H]1[C@@]1(C)O[C@@H]1CC=C(C)C		humans, plasma	subcutaneous, 0.6 mg twice weekly, first dose	0.27 h
COC(=O)N[C@@H](C)CNc1nccc(-c2cn(C(C)C)nc2-c2cc(Cl)cc(NS(C)(=O)=O)c2F)n1		human patients, plasma	oral, 450 mg twice daily, day 14, steady state, median, added: binimetinib 45 mg once daily	1.94 h
CC1(COc2ccc3c(c2)ncn3-c2ccc3cccc(N4CCC(N)CC4)c3n2)COC1		human patients, recurrent/progressive HGG or DIPG, serum	oral, 100 mg/m^2, day 28, median	1.5 h

Compound	test	test system	setting	Tmax
CCCCCCCOc1ccc(CCC(N)(CO)CO)cc1C(F)(F)F.Cl		healthy human males, plasma	oral, 0.25 mg, day 1, median	12 h
N#CCC1CCN(c2nc(Nc3ccc(N4CCC(O)CC4)cc3)c3c(=O)[nH]ncc3n2)CC1	LC-MS/MS	human, plasma	oral, 80 mg once daily, day 1, median	2 h
Cn1nnc2c(C(N)=O)ncn2c1=O		human patients, plasma	oral, 20 mg/m2, day 5, dose level DL3, median, added: talazoparib 600 µg/m2	1 h
O=C(NCCN1CCCC1)c1cc(-c2ccc(CN3CCOCC3)cc2)nc2ccc(F)cc12		human, whole blood	oral, 2100 mg	1.5 h
COc1ccc2c3c1O[C@H]1C[C@@H](OC(=O)c4ccccc4)C=C[C@@]31CCN(C)C2		human, plasma	intranasal, 11 mg single dose	0.25 h and 0.5 h
Cn1ncnc1[C@H]1c2n[nH]c(=O)c3cc(F)cc(c23)N[C@@H]1c1ccc(F)cc1		human patients, plasma	oral, 600 µg/m2 twice daily, day 1, monotherapy, dose level DL3, median	1 h
NC(CO)(CO)CCc1ccc(Sc2cccc(OCc3ccccc3)c2)cc1Cl		human, fed, whole blood	oral, 3 mg, median, alone	4 h
NCCCS(=O)(=O)O		human, plasma	oral, 265 mg twice daily, then once daily, day 7, tablet, fed, twice daily days 2-6, once daily day 7	3 h
CC1=C(c2cccc(O)c2)[C@H](c2ccc(OCCN3CC(CF)C3)cc2)Oc2ccc(O)cc21		human, plasma	oral, 1400 mg single dose, median	3 h
COc1c(OCCCN2CCOCC2)ccc2c1N=C(NC(=O)c1cnc(N)nc1)N1CCN=C21		human, plasma	intravenous, 0.6 mg/kg, cycle 1 day 1, median, added: gemcitabine	1.03 h
Cn1c(=O)oc2ccc(-c3ccc(C[C@@H](C#N)NC(=O)[C@@H]4CNCCCO4)cc3)cc21		human, normal renal function, plasma	oral, 25 mg single dose, median	1 h
C#C[C@]1(COP(=O)(O)OP(=O)(O)O)O[C@@H](n2cnc3c(N)nc(F)nc32)C[C@@H]1O	item: islatravir triphosphate	human, PBMC	oral, 100 mg single dose	12 h
CO[C@H]1/C=C/O[C@@]2(C)Oc3c(C)c(O)c4c(O)c(c(/C=N/N5CCN(C)CC5)c(O)c4c3C2=O)NC(=O)/C(C)=C\C=C\[C@H](C)[C@H](O)[C@@H](C)[C@@H](O)[C@@H](C)[C@H](OC(C)=O)[C@@H]1C		healthy human subjects, plasma	oral, compound alone once daily	3.5 h
O=C(c1cc(Cc2n[nH]c(=O)c3ccccc23)ccc1F)N1CCN(C(=O)C2CC2)CC1		human, female, plasma	oral, 250 mg	1 h
Cn1cncc1[C@@](N)(c1ccc(Cl)cc1)c1ccc2c(c1)c(-c1cccc(Cl)c1)cc(=O)n2C		human, plasma	oral, 200 mg/m^2	1.65 h and 3.02 h and 2.97 h and 3.25 h and 2 h
CN(C)C(=O)c1cc2cnc(Nc3ccc(N4CCNCC4)cn3)nc2n1C1CCCC1		human, expansion cohort, plasma	oral, 800 mg, day 14, added: gemcitabine 1000 mg/m^2	5.1 ± 1.2 h
CCN(CC)Cc1cc(Nc2ccnc3cc(Cl)ccc23)ccc1O		human, both sexes, plasma	oral, dose not given, non-fixed combination	1.55 h
N#Cc1cc(NC(=O)[C@H]2c3ccccc3C(=O)N(CC(F)(F)F)[C@@H]2c2cccnc2)ccc1F		human, plasma	oral, 75 mg, median	1.6 h
C[C@H](NC(=O)/C(C#N)=C/c1cccc(Br)n1)c1ccccc1	LC-MS/MS	human, plasma	oral, 2 mg/kg, cycle 1 day 8	2 h
COc1nnc2ccc(N3CCC(c4ccc(OCCN5CCN(C)C(=O)[C@H]5C)cc4)CC3)nn12		human, plasma	oral, dose not given, single dose, monotherapy, across dose cohorts	0.5 to 3 h
COc1c(C)c2c(c(O[C@@H]3O[C@H](C(=O)O)[C@@H](O)[C@H](O)[C@H]3O)c1C/C=C(\C)CCC(=O)O)C(=O)OC2	item: mycophenolic acid	healthy human subjects, plasma	oral, 1 g mycophenolate mofetil, median, alone	1.5 h
Cc1cn(C(=O)c2c(-c3c(Cl)cc(Cl)cc3Cl)noc2C(C)(C)F)c2cccc(/C=C/C(=O)O)c12		human patients	1400 mg bid, cycle 8 day 1	4.05 h
COc1ccc([C@@H](O)c2cc(-c3ncnc4cc(N5CCOCC5)ccc34)c(F)cc2Cl)nn1	plasma pharmacokinetics	human	oral, 150 mg capecitabine, single dose, median	2.33 h
Cc1noc(C)c1-c1cc(C(O)(c2ccccn2)c2ccccn2)c2nc(C3CC3)[nH]c2c1		human patients, plasma	oral, 3 mg, cycle 1 day 8, monotherapy	1 h
CC(C)(C)OC[C@@H]1C(=O)NCCN1C(=O)C[C@H](N)Cc1cc(F)c(F)cc1F		human, male, plasma	oral, steady state, DP treatment	2 h
COc1ncc(-c2nc3c(n2C(C)C)[C@H](c2ccc(Cl)cc2)N(c2cc(Cl)cn(C)c2=O)C3=O)c(OC)n1	LC-MS/MS, noncompartmental	human, plasma	oral, 200 mg, C1D8, high-dose, median	2.1 h
CC(=O)O.NC(=O)c1cnc(N[C@@H]2CCCC[C@@H]2N)nc1Nc1cccc(-n2nccn2)c1		human, plasma	oral, 110 mg once daily	3.03 h

A few entries again:
Compound	test	test system	setting	Tmax
C[C@H](Oc1ccc(Br)cc1-c1ccon1)C(=O)O		healthy male humans, plasma	oral, 400 mg twice daily, day 10, median	8.01 h
COc1c(C)c2c(c(O[C@@H]3O[C@H](C(=O)O)[C@@H](O)[C@H](O)[C@H]3O)c1C/C=C(\C)CCC(=O)O)C(=O)OC2	item: mycophenolic acid	healthy human subjects, plasma	oral, 1 g mycophenolate mofetil, median, alone	1.5 h
Cn1cc(-c2ccc(S(=O)(=O)[C@@H]3C[C@@H](C(=O)NC4(C#N)CC4)N(C(=O)C4(C(F)(F)F)CC4)C3)c(C(F)(F)F)c2)cn1	noncompartmental analysis	human, plasma	oral, 50 mg, day 1, with food, median	5 h
